# Published values gathered from unrelated publications.
# Numbered parts are unrelated; each lists some results of a single study.

# Sample 1
# Target: RING finger protein unkempt homolog, zinc fingers 1-6, GST-SBP tag (UNK, Homo sapiens, UniProt Q9C0B0, residues 30-357)
# Chain of UniProt Q9C0B0 (30-357, looked up): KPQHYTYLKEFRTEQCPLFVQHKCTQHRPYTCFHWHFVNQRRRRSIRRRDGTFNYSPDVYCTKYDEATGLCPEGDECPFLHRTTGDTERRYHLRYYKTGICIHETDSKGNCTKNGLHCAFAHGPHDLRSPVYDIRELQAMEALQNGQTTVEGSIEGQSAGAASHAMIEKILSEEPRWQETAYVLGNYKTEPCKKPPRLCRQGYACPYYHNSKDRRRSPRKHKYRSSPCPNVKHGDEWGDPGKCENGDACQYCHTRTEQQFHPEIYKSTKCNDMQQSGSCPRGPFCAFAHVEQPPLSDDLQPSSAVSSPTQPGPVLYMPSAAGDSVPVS
# Method: RNA Bind-n-Seq
# Form: RNA
# Medium: in vitro
# Concentration: not given
# Setting: RNA with constant flanks, human and mouse sites, ends assumed
# Baseline: input RNA pool
# Direction: higher = stronger binding
# All sequences stand within: GGGAGUUCUACAGUCCGACGAUC … CAACAGAGGAUUGAGCAUCA
Sequence,bound/input enrichment [ratio]
CAUCAUUAUGCCUAUAAUGUGCCGCUUUGUGAUUGGGCAUUUGCCUACUUUUCUUUCAUAAUUAGUGAUAUAUGCGAUGUAAAACCACUAGUAAAGGUACAUUUUAAUACUUGUUAUUUU,4.96
ACCUGAGAGACACCCUCCUCUAGAAUUUAGUGGCGGGUCUGGGCUGGCAGAGGUAGGGGGCUGCUUUGGGCUUUGCACCUGCACUUUGGUGACAUUGUUCUUCUGUGUUCCCUUUAUUUA,2.49
GGAGAGGAAUACUAAAGUUAAAACGUCACAAAGGUGCUGCUUUUACAGGGAAGCUUAUUCUGUUUUAAACAUUGAAAAGUUGUGGUCUGAUCAGUUAAUUUGUAUGUAGCAGUGUAUGCU,2.17
CGAAAUUUGAAUCUCUUUAAGUUAUUCAGACUUGUACACAAACUUGGAGGAUUUGAUAAUAUUGAAAGUGGAGCUGUUUGGAAACAAGUCUACCAAGAUCUUGGAAUCCCUGUCUUAAAU,0.135
CCAAAAGCAGUAGUUUCUCCUCCUAAGUUUGUAUUUGGCUCAGAAUCUGUUAAAAGCAUUUUUAGUAGUGAAAAAUCCAAGCCAUUUGCAUUUGGCAACAGUUCAGCCACUGGUUCUUUG,0.18
AGCUUACUGUAUUAGUCAUUUUUAGCCCAUAAUUAAAACAUGAUCACUUUUACACAGGUGUAGUAUGGUGCAUUUCAUUCCUUAUUUAUAAAUUAACUGAAAUUACAGUUUGCUAUAAUA,14.2
CUUGCUUUUUUGGUUCUCUACAAUUUCAUCAUUCCAAUUUCAUUAUAUGUGACAGUCGAAAUGCAGAAAUUUCUUGGAUCAUUUUUUAUUGGCUGGGAUCUUGAUCUGUAUCAUGAAGAA,0.207
GACAUUUUGGGUGUUAAGAAGGAAAUGAUCCGGCUAGAUGAAGUUCCCAAUCUGAGUUCCUUAGUAUCCAAUUUCGAUCAGCAGCAGCUUGCUAACUUCUGCAGGAUCCUGGCUGUCACC,0.466
ACUUUUGGAUAAUAUCCACUGCAAUACUAAUUGAGAAACAUGAAUUAUUUCCAGGGGCACACAAUGCUAUUGAAAUUACUGAAAACAAAAUAUCUGACAUCUUAUUUACUUGUAGAAAUC,0.271
AUAUGAUCUUCUGCUCUUCCCAGGUCCCUUUCUCCCGCUCCCCCACUUGCCCUUUGCUGGUAGUAGCCAUGCUCCUGUGCUCCUCAUCCGUGGGGACAGGGCUUGGAGCAGUCACCCUUU,0.265
GCUGCAUACAUAGAAAAUGCAAAACAGGUUGGCCGCCUUGAAAAUGCAAUCGGGUGGUAUCAUAGCCACCCUGGCUAUGGCUGCUGGCUUUCUGGGAUUGAUGUUAGUACUCAGAUGCUC,0.196

# Sample 2
# Target: Interferon regulatory factor 5, full length, phosphomimetic (IRF5, Homo sapiens, UniProt Q13568-2, residues 1-514, S451D/S453D/S456D/S462D)
# Method: protein-binding microarray
# Form: double-stranded DNA, one strand shown
# Medium: in vitro
# Concentration: 940 nM top
# Setting: 60-bp whole probe
# With: salmon DNA 0.4 mg/ml
# Baseline: random background probes
# Direction: higher = stronger binding
# All sequences stand within: GCCTAGCAC … GTCTTGATTCGCTTGACGCTGCTG
Sequence,fitted relative affinity [z-score]
GACCGTTTCGACACTGGGGACGTGCTA,2.58
TGGGGGGATCAGGGAAACAGGTGCTAG,3.15
GACGGTATCGGGTATCGGGACGTGCTA,5.61
GCCCCACCCACTCTGGCCCCGTGCTAG,0.301
TTAGATTTCGGGTTTCGCTTAGTGCTA,3.83
TCCATTTTGGTTTTCATTATGTGCTAG,1.75
GACGATTTCGGTCTCGAGACGTGCTAG,2.65
TTAGATCTCTGTTTCGATTAGTGCTAG,4.07
CTAGATTTCGGGTATCGATTAGTGCTA,3.43
TTAGGTATCCGTCTCCTTTAGTGCTAG,0.946
CACGGACTGCTTATCCTGACGTGCTAG,-0.5
GCCGGTTTCGGGTATCGGGACGTGCTA,10.6
AACCATTTTGGTTTTCTCTAGTGCTAG,0.345
GTGTATATACTATATGCATGTGTGCTA,0.145
TTAGGTCTCCTTATCCTTTAGTGCTAG,0.735
TGCTGTGTACATCTCTCTTAGTGCTAG,0.0393
GACGATCTCAGACCGGAGACGTGCTAG,-0.361
TCAACTCTTCTTTTGCTACTGTGCTAG,1.38
GACGAACTGGGAACTGGAGACGTGCTA,-0.196

# Sample 3
# Target: RNA binding protein fox-1 homolog 2, RRM domain, GST-SBP tag (RBFOX2, Homo sapiens, UniProt O43251-10, residues 100-194)
# Method: RNA Bind-n-Seq
# Form: RNA
# Medium: in vitro
# Concentration: 365 nM
# Setting: natural RNA segment, single round, ends assumed
# Baseline: no-protein control
# Direction: higher = stronger binding
# All sequences stand within: GGGAGUUCUACAGUCCGACGAUC … UGGAAUUCUCGGGUGCCAA
# Residues (chain): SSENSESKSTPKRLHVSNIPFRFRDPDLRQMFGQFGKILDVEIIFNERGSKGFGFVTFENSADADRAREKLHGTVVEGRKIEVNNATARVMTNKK
Sequence,RBNS enrichment (R)
UUGGAGACUGGGAUUAGAGCCUUUGGAGGUCAAAGCAAAUUAAGAUUUUUAUUUAAGAAUAAAAGAGUACUUUGAUCAUGAGACAUAGGUAUCUUGUCCCUCUCACUAAA,0.461
UUCUAGGAUAGGAUGCAUGUUAGUAAGUUACGUAUGCAAGUCUGAGCGCGCGCGGCUGAUGGACAUCGUCGAGGACCGACAUAGACCCGAUGCCAAGACCUUAGCCCCAA,1.2
UGGGAAUGGUAUAGGAUUGUCCCCAAGUGUCCAUGUAACUUUUGUUUUAACCUUUGCACCUUCUCAGUGCUGUAUGCGGCUGCAGCCGUCUCACCUGUUUCCCCACAAAG,1.14
AAGAAGACAGACUGGUUCAUUGAAUGCCGCCUUAUUUAUUUCUGGUGAGGAUGCAUGCGUGGGGCUGCUGGUGUUUAGAGUGGGGGCUACCCAAUAAAUCACUGAUACUC,5.5
AAUCACUUCUUGAAGAAGUAUAAUUGUAAAUAAGCCAUGUAAAAUGCCUUUUUAAAAUUUAAUUUUCUAGCUGGCUCCAAUUCAAAUUGAGGAUUUAUGUAUUAGGCCAC,0.61
GAUAAUAUGUGACUUUAGUCUAGUCUUCUCUGAGACUUUGAGACCCUUGGCUUGGCUGGUAUAAGUGUGUCAUCCGGACCACCAAACUUCAGAUUAAGCUGUUACUGAGU,0.686
UGGCUGGUGAGUGGCCUGUGUUAGUCUUGUGAGGACCUCGAGGAACCUAAAAGCUCAGAUGCACUUACAGUCUUGUCUGUGGCCUUUGUAUUGUUAUUGGCUGUAAACGU,3.89
UGGAGCGGUGGGGACGUCAGCAGGAAACGCCAGUGCUUUGCUGCCUGAUUGACAGGAAUUUGCUGUCCUUGACACUCCACACAUUGUGUUCCUCACGUGUGGGACAGGAC,0.437
UGUGAGUAUGGGACAGCCGAGUUAUACCCAAGCCCAGAUGCCCCCCCAUCCUGCUCAGCUGCGUCAUGGGCCCCCCAUGCAUACGUACAUUCCUGGACACCCUCACCACC,0.808
UCUGUCCUGGGUGGGAUGCACCGAGCUAGUCACGGGUGUCGGAUCAGAUCUUUUAAAAACACUUGUCUCAUGUAAUUGAGACCCGCCACCAUCGCAGAUGAGUGACAAGA,0.316
UAACACACUCAAACUGGUGGAGCUUGUUCACCCUAGGAAGGGGAUUGUAUAUAUGGCAGGCUUCCCUGGUGCCGAUGUAAAGGGCUACAUUUGGGAACAUUUGACUUCCU,0.515
GAAGACCCUUUAGCUACCCCUCCUAUUGCUACUCGUGCACCUUCCAUUACACUCCCCCCUACCUUUCGCCCCCUCCUCACCAUUAUUGAGACCACCAAAGAUUCCCUGUC,1.66

# Sample 4
# Target: Ras GTPase-activating protein-binding protein 1, C-terminal RGG region (G3BP1, Homo sapiens, UniProt Q13283)
# Chain of UniProt Q13283 (whole entry, looked up): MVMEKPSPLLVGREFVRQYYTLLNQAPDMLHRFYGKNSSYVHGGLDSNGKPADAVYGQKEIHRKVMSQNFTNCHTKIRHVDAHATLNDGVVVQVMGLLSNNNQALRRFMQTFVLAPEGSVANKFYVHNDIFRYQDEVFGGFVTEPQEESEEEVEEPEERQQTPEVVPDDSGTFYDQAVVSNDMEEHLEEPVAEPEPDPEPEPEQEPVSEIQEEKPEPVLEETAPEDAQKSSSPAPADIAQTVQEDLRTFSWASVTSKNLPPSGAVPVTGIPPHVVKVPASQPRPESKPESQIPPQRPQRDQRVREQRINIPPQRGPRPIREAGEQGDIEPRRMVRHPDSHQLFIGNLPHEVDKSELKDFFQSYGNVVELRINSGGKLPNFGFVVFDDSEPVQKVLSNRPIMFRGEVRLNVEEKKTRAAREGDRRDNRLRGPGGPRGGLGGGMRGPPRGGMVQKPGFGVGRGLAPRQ
# Method: RNA Bind-n-Seq
# Form: RNA
# Medium: in vitro
# Concentration: 1 µM
# Setting: whole 134-nt RNA, ends assumed
# With: 150 mM KCl
# Baseline: input library
# Direction: higher = stronger binding
# All sequences stand within: GGGAGUUCUACAGUCCGACGAUC … UGGAAUUCUCGGGUGUCAAGG
Sequence,log2 enrichment
GUCCUGUGCUACACAUCGUAUGUACCGAAUCGGGAAAAAAAGGGUGGGUUUUUUUGGGAAAGUAUUAUGUUACGCCGUUCGGAUCUGCAC,0.294
CUCAAGUCCUGUGCUACACAUCGUAUGUACCGAAUCGGGGUUGGUUGGGUUGGAAAGUAUUAUGUUACGCCGUUCGGAUCUGCACUUCCA,-0.696
CUCAAGUCCUGUGCUACACAUCGUAUGUACCGAAUCGGGUGGGAAAGGGAGGGAAAGUAUUAUGUUACGCCGUUCGGAUCUGCACUUCCA,1.72
CAAGUCCUGUGCUACACAUCGUAUGUACCGAAUCGGGGAGGGGUGGGGAAAGGGGAAAGUAUUAUGUUACGCCGUUCGGAUCUGCACUUC,2.72
UCAAGUCCUGUGCUACACAUCGUAUGUACCGAAUCGGGCCCGGGCCCGGGCCCGGAAAGUAUUAUGUUACGCCGUUCGGAUCUGCACUUC,-2.32
CACAGACAACACGCACCCACACAGACACAGAGGGAAGGGGUUGGGAUGGGGACAGGGUGCACAGCAUGGCGGGGUAGGACCCCAGCCCCU,-0.267
CCUCAAGUCCUGUGCUACACAUCGUAUGUACCGAAUCGGUUGGGGUUGGUUGGAAAGUAUUAUGUUACGCCGUUCGGAUCUGCACUUCCA,-0.834
UGGACCUGGUGGCAUGCGGGGAGGAAGAGGUGGCCUCAUGGAUCGUGGUGGUCCCGGUGGAAUGUUCAGAGGUGGCCGUGGUGGAGACAG,1.95

# Sample 5
# Target: Histone acetyltransferase KAT6A, winged helix 1, GST fusion (KAT6A, Homo sapiens, UniProt Q92794, residues 1-85)
# Method: protein binding microarray
# Form: double-stranded DNA, one strand shown
# Medium: in vitro
# Concentration: not given
# Setting: 8-mer, flanks averaged, mean of 2 arrays, mostly near background
# Baseline: not given
# Direction: higher = stronger binding
# Residues (chain): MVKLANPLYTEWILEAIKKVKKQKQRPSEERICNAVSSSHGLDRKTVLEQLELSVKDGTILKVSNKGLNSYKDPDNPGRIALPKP
Sequence,E-score
CCCCGACA,0.0755
GGCAAGAC,0.144
AGCGTAGC,0.164
CGGAGAGA,0.101
ATACCGGA,0.0728
AGAACGCA,-0.101
GCGATACA,-0.0133
ATGTGTAG,-0.0599
CTCTCTAA,-0.126
TATCGATA,-0.00473
AAGCTTGC,-0.0645
ATAACTTA,-0.0874
GGCCTTAA,-0.0754
AATAATGT,-0.129
CCTTGTCA,-0.063
CTCTACGA,-0.159

# A few entries again (sample 3):
Sequence,RBNS enrichment (R)
UGUGAGUAUGGGACAGCCGAGUUAUACCCAAGCCCAGAUGCCCCCCCAUCCUGCUCAGCUGCGUCAUGGGCCCCCCAUGCAUACGUACAUUCCUGGACACCCUCACCACC,0.808
UCUGUCCUGGGUGGGAUGCACCGAGCUAGUCACGGGUGUCGGAUCAGAUCUUUUAAAAACACUUGUCUCAUGUAAUUGAGACCCGCCACCAUCGCAGAUGAGUGACAAGA,0.316
AAUCACUUCUUGAAGAAGUAUAAUUGUAAAUAAGCCAUGUAAAAUGCCUUUUUAAAAUUUAAUUUUCUAGCUGGCUCCAAUUCAAAUUGAGGAUUUAUGUAUUAGGCCAC,0.61
UGGAGCGGUGGGGACGUCAGCAGGAAACGCCAGUGCUUUGCUGCCUGAUUGACAGGAAUUUGCUGUCCUUGACACUCCACACAUUGUGUUCCUCACGUGUGGGACAGGAC,0.437
UAACACACUCAAACUGGUGGAGCUUGUUCACCCUAGGAAGGGGAUUGUAUAUAUGGCAGGCUUCCCUGGUGCCGAUGUAAAGGGCUACAUUUGGGAACAUUUGACUUCCU,0.515
UUGGAGACUGGGAUUAGAGCCUUUGGAGGUCAAAGCAAAUUAAGAUUUUUAUUUAAGAAUAAAAGAGUACUUUGAUCAUGAGACAUAGGUAUCUUGUCCCUCUCACUAAA,0.461
GAAGACCCUUUAGCUACCCCUCCUAUUGCUACUCGUGCACCUUCCAUUACACUCCCCCCUACCUUUCGCCCCCUCCUCACCAUUAUUGAGACCACCAAAGAUUCCCUGUC,1.66
AAGAAGACAGACUGGUUCAUUGAAUGCCGCCUUAUUUAUUUCUGGUGAGGAUGCAUGCGUGGGGCUGCUGGUGUUUAGAGUGGGGGCUACCCAAUAAAUCACUGAUACUC,5.5
